Experimental data of several laboratories.
A part holds a random share of what one study measured.

Study 1
Target: Interferon regulatory factor 7, full length, phosphomimetic (IRF7, Homo sapiens, UniProt Q92985, residues 1-503, S101K/S471D/S472D/S475D/S476D/S477D/S483D/S484D/S487D)
Technique: protein-binding microarray
Molecule type: double-stranded DNA, one strand shown
Matrix: in vitro
Concentration: 250 nM
Setting: 60-bp whole probe
With: salmon DNA 0.4 mg/ml
Baseline: random background probes
Direction: higher = stronger binding
Constant ends, left off below: GCCTAGCAC … GTCTTGATTCGCTTGACGCTGCTG
Residues (chain): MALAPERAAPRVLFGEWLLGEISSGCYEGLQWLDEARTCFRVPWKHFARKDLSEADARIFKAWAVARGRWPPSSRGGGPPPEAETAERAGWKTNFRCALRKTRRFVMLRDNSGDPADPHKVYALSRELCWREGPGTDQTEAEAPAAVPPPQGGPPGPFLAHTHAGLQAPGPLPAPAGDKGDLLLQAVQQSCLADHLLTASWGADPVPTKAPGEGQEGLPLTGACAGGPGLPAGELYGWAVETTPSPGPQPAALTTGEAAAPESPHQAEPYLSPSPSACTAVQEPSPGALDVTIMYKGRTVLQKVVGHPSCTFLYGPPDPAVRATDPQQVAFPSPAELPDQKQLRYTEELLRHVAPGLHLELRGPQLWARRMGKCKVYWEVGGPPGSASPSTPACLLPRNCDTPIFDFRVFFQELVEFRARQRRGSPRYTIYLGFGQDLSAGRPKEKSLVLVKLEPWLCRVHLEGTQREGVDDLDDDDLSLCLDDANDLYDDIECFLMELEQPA
Sequence | log fluorescence
TCATTTTTTGGTTTCTGACTGTGCTAG | 2.09 z-score
GACGGTTTCCTTGTCCTGACGTGCTAG | 1.28 z-score
GACGGTCTCGAACTGGGGACGTGCTAG | -0.0235 z-score
TTAGGACTGGGGTTTCGGTGAGTGCTA | 0.692 z-score
TAAGATATCAGTATCGATTAGTGCTAG | 1.2 z-score
GTAGGTTTCGGTATCGGTTAGTGCTAG | 10.9 z-score
GACGATATCGGGTATCGAGACGTGCTA | -0.205 z-score
TTAGGTATCGACGCTGGGTTAGTGCTA | -0.297 z-score
CACGAACTGAGTCTCGAGACGTGCTAG | 0.351 z-score
TTAGACCTGGGGACTGGATTAGTGCTA | -0.309 z-score
GACGGTTTCGCTCTCGGGACGTGCTAG | 6.17 z-score
TCATGTTTTCATTTTATACTGTGCTAG | 2.87 z-score
TCATTTCTAATATTCTGACTGTGCTAG | 1.42 z-score
GGTGCTCTGCAGCTCAGGCAGTGCTAG | -0.684 z-score
CTCCCATTATATTTTAATCAGTGCTAG | 0.89 z-score
TTAGGACCGGACACTGGGTTAGTGCTA | -0.36 z-score
TTCTTAATGCTTCTGGGCCAGTGCTAG | -0.141 z-score
TTAGAACTGAGTATCGATCAGTGCTAG | -0.112 z-score
GGCCATTTCCCTTGCCGCGCGTGCTAG | 0.643 z-score

Study 2
Target: Histone acetyltransferase KAT6A, winged helix 2, GST fusion (KAT6A, Homo sapiens, UniProt Q92794, residues 85-181)
Technique: protein binding microarray
Molecule type: double-stranded DNA, one strand shown
Matrix: in vitro
Concentration: not given
Setting: 8-mer, flanks averaged, mean of 2 arrays, mostly near background
Baseline: not given
Direction: higher = stronger binding
Residues (chain): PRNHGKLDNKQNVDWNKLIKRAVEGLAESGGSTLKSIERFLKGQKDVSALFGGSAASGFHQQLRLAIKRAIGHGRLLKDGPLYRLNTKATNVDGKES
Sequence | E-score
AAGGACGC | -0.125
ATTATCCA | 0.025
AATCCTGT | 0.0407
CTACTGTC | -0.102
CGGCCCAA | 0.183
ACAAAACC | 0.0524
ATCTCACC | 0.0741
AAGAAGCC | 0.144
CCTTTGCC | -0.0747
CACGTAGC | -0.316
CACCGTAG | -0.0385
CTTGCTCC | 0.00615
GTGGGGTA | -0.0197
GCAAATTA | 0.0694
CAACTAAA | 0.1
CTCCCGCC | 0.141
AAAAACAC | 0.0923
AGCAGTAA | 0.0686

Study 3
Target: Ras GTPase-activating protein-binding protein 1, C-terminal RGG region (G3BP1, Homo sapiens, UniProt Q13283)
Sequence of UniProt Q13283 (whole entry, looked up): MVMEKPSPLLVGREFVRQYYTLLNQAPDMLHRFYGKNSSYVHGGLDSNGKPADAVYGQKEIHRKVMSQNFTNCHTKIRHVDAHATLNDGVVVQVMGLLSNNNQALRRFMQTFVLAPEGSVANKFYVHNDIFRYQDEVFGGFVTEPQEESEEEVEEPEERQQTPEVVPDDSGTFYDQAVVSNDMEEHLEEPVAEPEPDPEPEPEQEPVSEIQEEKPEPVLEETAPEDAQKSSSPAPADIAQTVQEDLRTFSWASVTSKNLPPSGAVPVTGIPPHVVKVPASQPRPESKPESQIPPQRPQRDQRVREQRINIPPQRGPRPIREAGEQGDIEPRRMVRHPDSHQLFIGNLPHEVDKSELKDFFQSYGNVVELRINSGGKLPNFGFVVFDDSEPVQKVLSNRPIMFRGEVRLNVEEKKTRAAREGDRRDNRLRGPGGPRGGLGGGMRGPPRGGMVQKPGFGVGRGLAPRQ
Technique: RNA Bind-n-Seq
Molecule type: RNA
Matrix: in vitro
Concentration: 1 µM
Setting: whole 134-nt RNA, ends assumed
With: 150 mM KCl
Baseline: input library
Direction: higher = stronger binding
Sequence | log2 enrichment
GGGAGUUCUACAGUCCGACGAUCUCAAGUCCUGUGCUACACAUCGUAUGUACCGAAUCGGGGCCGGCCGGGCCGGGGAAAGUAUUAUGUUACGCCGUUCGGAUCUGCACUUCCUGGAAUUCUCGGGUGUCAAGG | -1.34
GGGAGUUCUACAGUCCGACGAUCAGUCCUGUGCUACACAUCGUAUGUACCGAAUCAAAUUUAAAUUUAAACCCCCCCAAAAAAGUAUUAUGUUACGCCGUUCGGAUCUGCACUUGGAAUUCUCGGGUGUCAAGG | -0.638
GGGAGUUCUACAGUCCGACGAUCAGUCCUGUGCUACACAUCGUAUGUACCGAAUCAAACCCCCAAAUUUAAACCCCCAAAAAAGUAUUAUGUUACGCCGUUCGGAUCUGCACUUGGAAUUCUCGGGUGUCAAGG | -1.1
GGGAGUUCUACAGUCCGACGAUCGUCCUGUGCUACACAUCGUAUGUACCGAAUCGGGGAAAAGGGGAAAAGGGAAAAGGGGAAAGUAUUAUGUUACGCCGUUCGGAUCUGCACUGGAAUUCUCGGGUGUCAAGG | 0.422
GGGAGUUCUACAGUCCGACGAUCGUCCUGUGCUACACAUCGUAUGUACCGAAUCGGAAAAAAAGGUUUUUGGAAAAAAAGGAAAGUAUUAUGUUACGCCGUUCGGAUCUGCACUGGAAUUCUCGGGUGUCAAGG | -2.01
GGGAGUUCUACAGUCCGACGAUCAGUCCUGUGCUACACAUCGUAUGUACCGAAUCGGGUUUGGGAAAAAGGGUUUUUGGGAAAGUAUUAUGUUACGCCGUUCGGAUCUGCACUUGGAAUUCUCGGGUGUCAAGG | 1.15
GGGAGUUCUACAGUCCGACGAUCCUCAAGUCCUGUGCUACACAUCGUAUGUACCGAAUCGGCCGGCCGGGGCCGGGGAAAGUAUUAUGUUACGCCGUUCGGAUCUGCACUUCCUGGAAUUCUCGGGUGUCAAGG | -1.38
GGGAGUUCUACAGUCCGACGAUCAGUCCUGUGCUACACAUCGUAUGUACCGAAUCAAAUUUAAAUUUUUUUAAAUUUAAAAAAGUAUUAUGUUACGCCGUUCGGAUCUGCACUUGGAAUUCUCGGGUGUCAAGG | -2.89
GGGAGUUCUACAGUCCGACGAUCAAGUCCUGUGCUACACAUCGUAUGUACCGAAUCGGUUUUUUUGGAAAAAGGUUUGGAAAGUAUUAUGUUACGCCGUUCGGAUCUGCACUUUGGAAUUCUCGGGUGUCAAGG | -2.5

Study 4
Target: RNA binding protein fox-1 homolog 2, RRM domain, GST-SBP tag (RBFOX2, Homo sapiens, UniProt O43251-10, residues 100-194)
Technique: RNA Bind-n-Seq
Molecule type: RNA
Matrix: in vitro
Concentration: 365 nM
Setting: natural RNA segment, single round, ends assumed
Baseline: no-protein control
Direction: higher = stronger binding
Target sequence (chain): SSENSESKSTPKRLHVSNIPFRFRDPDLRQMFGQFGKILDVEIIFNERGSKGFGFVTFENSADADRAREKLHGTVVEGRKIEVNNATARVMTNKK
Sequence | RBNS enrichment (R)
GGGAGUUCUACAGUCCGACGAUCUUUAAAAAACAAAAAAUGACAAGAGAGAUGAAAACGUUUGAUUAUUUUCUCAGUGUAUUUUUGUAAAAAAUAUAUAAAGGGGGUGUUAAUCGGUGUAAAUCGCUGUUUGGUGGAAUUCUCGGGUGCCAA | 0.594
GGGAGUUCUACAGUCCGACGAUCUGGAACUGUGCAAGAAAAGAACAAGGAAAAAUGGAUGUUUCGCUGCAGGAUUAAGUUACAAUUAUCUUCUCAGUGAAGGUCAUUUGUGAUGGGGUCUAAUUCUUAUUACUUGGAAUUCUCGGGUGCCAA | 0.839
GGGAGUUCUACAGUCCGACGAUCACCCCUUAAUAAUAUCAGCUUAAUUUUAAUGACAACUAAAUAUGCUGAAGUGAGGAUUUAGUAUUUUUUAAAAAAGCAAAACAAGGUUCAGUAGUCCUCAGCAAUUCUCCUGGAAUUCUCGGGUGCCAA | 0.562
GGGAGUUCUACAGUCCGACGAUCCACUCCAGCAAACAAAGCAACGGCCCUGCUGGGAUUGUCGAAUCUCCCUUGAGGGUUUCAGGGACCUUGAAAAGGGCAGGAGGACCUGCUGUCUUGCAGUUUUACCCCUGUGGAAUUCUCGGGUGCCAA | 0.337
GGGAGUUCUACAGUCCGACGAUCCACAAGACUCUUCGAGGGGCCAGGUCAGGGCUCAUCUUCUACCGGAAAGGGGUGAAGGCUGUGGACCCCAAGACUGGCCGGGAGAUCCCUUACACAUUUGAGGACCGAAUUGGAAUUCUCGGGUGCCAA | 0.27
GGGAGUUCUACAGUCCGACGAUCACCUUAAAGUACUGUUCUUUAUUUAAUAAGAUACGCUACUACAUUGCUUUGUUUAUAAAUAGUUUAUGGGAAAUUUGCACUUAGUAUGUUUUGAAUAAUGACCACGCAUGUGGAAUUCUCGGGUGCCAA | 1.46
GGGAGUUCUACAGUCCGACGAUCGGACCCAUAAGGCACAUUAGCGUUGGGGGUCUCUUUUCAGCAGCCUCACAGACAUUCCCGUCCUUUCUGGUUGGUGUUGACUGUGUUUCAGCAUCACUCUACCCUCCCAUUGGAAUUCUCGGGUGCCAA | 0.319
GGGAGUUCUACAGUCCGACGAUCGGUUAGCUGAGAAAGAAAUCGGGCUGCUGCGGAGCACAGAGUGACUUGGAACUCCAUUCCACCUGACCCUGUGUGUACAAUCCAGGAAAACAAACCCCGCUCAGAAACAAUGGAAUUCUCGGGUGCCAA | 0.268

For quick reference, copied from above (study 3):
Sequence | log2 enrichment
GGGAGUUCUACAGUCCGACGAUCGUCCUGUGCUACACAUCGUAUGUACCGAAUCGGGGAAAAGGGGAAAAGGGAAAAGGGGAAAGUAUUAUGUUACGCCGUUCGGAUCUGCACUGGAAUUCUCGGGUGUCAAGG | 0.422
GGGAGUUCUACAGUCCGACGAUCGUCCUGUGCUACACAUCGUAUGUACCGAAUCGGAAAAAAAGGUUUUUGGAAAAAAAGGAAAGUAUUAUGUUACGCCGUUCGGAUCUGCACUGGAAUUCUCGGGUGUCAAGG | -2.01
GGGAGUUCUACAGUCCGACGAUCAGUCCUGUGCUACACAUCGUAUGUACCGAAUCGGGUUUGGGAAAAAGGGUUUUUGGGAAAGUAUUAUGUUACGCCGUUCGGAUCUGCACUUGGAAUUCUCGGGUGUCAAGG | 1.15
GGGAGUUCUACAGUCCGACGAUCCUCAAGUCCUGUGCUACACAUCGUAUGUACCGAAUCGGCCGGCCGGGGCCGGGGAAAGUAUUAUGUUACGCCGUUCGGAUCUGCACUUCCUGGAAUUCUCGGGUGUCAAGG | -1.38
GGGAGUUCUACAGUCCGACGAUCAGUCCUGUGCUACACAUCGUAUGUACCGAAUCAAAUUUAAAUUUUUUUAAAUUUAAAAAAGUAUUAUGUUACGCCGUUCGGAUCUGCACUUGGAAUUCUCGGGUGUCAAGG | -2.89
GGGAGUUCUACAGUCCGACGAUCUCAAGUCCUGUGCUACACAUCGUAUGUACCGAAUCGGGGCCGGCCGGGCCGGGGAAAGUAUUAUGUUACGCCGUUCGGAUCUGCACUUCCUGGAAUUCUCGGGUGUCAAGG | -1.34
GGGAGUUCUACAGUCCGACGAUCAGUCCUGUGCUACACAUCGUAUGUACCGAAUCAAAUUUAAAUUUAAACCCCCCCAAAAAAGUAUUAUGUUACGCCGUUCGGAUCUGCACUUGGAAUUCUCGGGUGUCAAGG | -0.638
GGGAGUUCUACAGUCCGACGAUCAAGUCCUGUGCUACACAUCGUAUGUACCGAAUCGGUUUUUUUGGAAAAAGGUUUGGAAAGUAUUAUGUUACGCCGUUCGGAUCUGCACUUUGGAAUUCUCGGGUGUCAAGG | -2.5
